Experimental data from different studies.
Protocols differ between the studies behind these lines. ± gives the spread as reported. Values after ≈ are worked out from the molar mass of the structure shown.

With `C=CC(N)CCC(=O)O` (stereo not shown) the AUC(0-inf) was 1750 ± 96 ng·h/mL (male Sprague-Dawley rat, plasma; oral, 1.0 mg/kg, formulation 1).
The CL/F of `O=C1N=C(N2CCOCC2)CN1c1ccc(Cl)cc1` is reported as 6.83 mL/min/kg (beagle dog, both sexes, plasma; oral, 30 mg/kg, tablets, fasted, day 5).
`C[C@]12CC[C@@H]3c4ccc(O)cc4CC[C@H]3[C@@H]1C[C@@H](O)[C@@H]2O` — result for “median serum concentration”: 0.0696 ng/mL (GC-MS; breast cancer women on NSAI, serum; vaginal, 0.03 mg, 2 h, day 0).
`CN[C@@H]1[C@H](O)[C@H](NC)[C@H]2O[C@]3(O)[C@H](O[C@@H]2[C@H]1O)O[C@H](C)C[C@H]3NC(=O)Cc1ccccn1` gave a parent remaining of 99.8% (glutathione conjugation; rat liver S9; 100 µM, 2 h, pH 7.4, added: glutathione 0.2 mM).
Under “concentration at 168 h”, `CS(=O)(=O)n1cc2c(n1)CN([C@H]1CO[C@H](c3cc(F)ccc3F)[C@@H](N)C1)C2` is recorded as 8.8 nM (healthy male human, plasma; oral, 10 mg once weekly, day 1, fasted, geometric mean).
The AUC(0-12h) of `CCN1C(=O)CNc2ncc(-c3ccc(-c4nc[nH]n4)nc3C)nc21` is reported as 1030 ng·h/mL (human, plasma; oral, 15 mg twice daily, multiple doses).
`C[C@@H]1O[C@@H](OC[C@H]2O[C@@H](Oc3c(-c4ccc(O)c(O)c4)oc4cc(O)cc(O)c4c3=O)[C@H](O)[C@@H](O)[C@@H]2O)[C@H](O)[C@H](O)[C@H]1O` gave an MRT(0-inf) of 28 ± 32.9 h (UPLC-MS/MS; Wistar rat, microcirculation dysfunction model, plasma; oral, 100 mg/kg Salvia miltiorrhiza stem-leaf extract FT).
`CN(C)C(=O)c1cc2cnc(Nc3ccc(N4CCNCC4)cn3)nc2n1C1CCCC1`: “unbound plasma concentration” 370 nM (human, plasma; oral, 600 mg daily for 8 days, day of surgery).
`COc1cccc(N2CCN(C3=Nc4c(F)cccc4[C@H](CC(=O)O)N3c3cc(C(F)(F)F)ccc3OC)CC2)c1` — result for “elimination rate constant”: 1.74e-05 ± 5.38e-06 s⁻¹ (UHPLC-MS/MS; healthy women, plasma; intravenous infusion, 120 mg single dose, 30 min infusion, HPβCD formulation).
`Cc1nc(-c2ccc(OCC(C)C)c(C#N)c2)sc1C(=O)O` gave an AUC(0-24) of 3070 ng·h/mL (adults with gout, plasma; oral, 40 mg, added: verinurad 10 mg).
`CCCS(=O)(=O)Nc1ccc(F)c(C(=O)c2c[nH]c3ncc(-c4ccc(Cl)cc4)cc23)c1F` — result for “unbound fraction in incubation”: 1.31e-05 ± 4.1e-06 (rapid equilibrium dialysis; 100% human plasma; 500 µM, 4 h).
`O=C(/C=C/c1ccc(O)c(O)c1)O[C@H](Cc1ccc(O)c(O)c1)C(=O)O` gave an MRT(0-inf) of 22.4 ± 29 h (UPLC-MS/MS; Wistar rat, microcirculation dysfunction model, plasma; oral, 100 mg/kg Salvia miltiorrhiza stem-leaf extract FT).
`Cc1nc2cccc(OCC(C)(C)C(=O)NC(C)C)c2c(N)c1C(=O)O` gave a Tmax of 0.25 h (female Sprague-Dawley rat, plasma; oral gavage, 100 mg/kg, day 7).
The trough concentration of `COc1cc(Nc2ncc3c(n2)-c2ccc(Cl)cc2C(c2c(F)cccc2OC)=NC3)ccc1C(=O)O` is reported as 1010 ± 230 nM (children, UGT1A1 extensive metabolizers, plasma; oral, 80 mg/m2, day 4).
With `C[C@](N)(Cc1ccc(O)c(O)c1)C(=O)O` the solubility was 13.4 µg/mL (≈ 63.4 µM) (supercritical carbon dioxide; 5 h, 343 K, 12 MPa, density 346.1 kg/m3).
For `CCCOc1ccc([C@H]2CNC(=O)N2c2ccc3[nH]cnc3c2)cc1`, the AUC(0-12h) was 11900 ng·h/mL (human, elderly, fasted, plasma; oral, 500 mg twice daily, tablet, day 11, geometric mean).
`Cn1c(-c2ccc(C(N)=O)cc2F)nnc1C(C)(C)Oc1c(F)cc(Cl)cc1F` has a Cmax mean of 767 ng/mL (healthy young Japanese subjects, plasma; oral, 50 mg once daily, day 18, 14 days dosing).
Under “dose excreted unchanged”, `CCOc1ccc(Cc2cc([C@]34OC[C@](CO)(O3)[C@@H](O)[C@H](O)[C@H]4O)ccc2Cl)cc1` is recorded as 0.389% (human, type 2 diabetes, severe renal impairment, urine; oral, 15 mg, 0 to 96 h).
With `COc1ccc2c(c1OCc1ccccc1)C[C@@H](C(=O)O)N(C(=O)C(c1ccccc1)c1ccccc1)C2` the Vd was 0.74 L/kg (male Sprague-Dawley rat, plasma; intravenous, 1 mg/kg).
`CNC[C@H](O)[C@@H](O)[C@H](O)[C@H](O)CO.CNC[C@H](O)[C@@H](O)[C@H](O)[C@H](O)CO.O=C([O-])CN(CCN(CC(=O)[O-])CC(=O)O)CCN(CC(=O)[O-])CC(=O)O.[Gd+3]` — result for “T1 relaxivity r1”: 4 ± 0.1 mM⁻¹ s⁻¹ (MRI at 9.4 T; saline; 37 °C, per Gd).
`CN1CCN(c2ccc3nc(-c4c(N)c5c(F)cccc5[nH]c4=O)[nH]c3c2)CC1` gave a t1/2 of 13.2 h (patients, plasma; oral, 300 mg daily 5 days on 2 off, day 19, median, added: gemcitabine and capecitabine).
`Oc1ccc(C(c2ccc(O)cc2)(C(F)(F)F)C(F)(F)F)cc1` has a half-life of 13.9 h (male rat, plasma; oral, 340 mg/kg, single dose).
With `C[C@@H](c1ncncc1F)[C@](O)(Cn1cncn1)c1ccc(F)cc1F` the trough concentration was 5830 ng/mL (patients, hematological disorders, CYP2C19 PM with PPI, plasma; 200 mg, 12 h, steady state, median, combined score 5).
Under “acetonitrile at elution”, `CCCCCCCCCCCCCNCC(=O)N(CC(=O)N(CCCCN)CC(=O)N(CCN)CC(=O)N(CC(N)=O)C(C)C)C(C)C` is recorded as 66.7% (preparative RP-HPLC C18; water to acetonitrile gradient; 0.05% TFA in eluent; higher = more hydrophobic).
`CC[C@H](C)[C@H](NC(=O)[C@H](Cc1ccccc1)NC(=O)[C@H](CCC(=O)O)NC(=O)[C@H](CCCCNC(=O)COCCOCCNC(=O)COCCOCCNC(=O)CC[C@H](NC(=O)CCCCCCCCCCCCCCCCC(=O)O)C(=O)O)NC(=O)[C@H](C)NC(=O)[C@H](C)NC(=O)[C@H](CCC(N)=O)NC(=O)CNC(=O)[C@H](CCC(=O)O)NC(=O)[C@H](CC(C)C)NC(=O)[C@H](Cc1ccc(O)cc1)NC(=O)[C@H](CO)NC(=O)[C@H](CO)NC(=O)[C@@H](NC(=O)[C@H](CC(=O)O)NC(=O)[C@H](CO)NC(=O)[C@@H](NC(=O)[C@H](Cc1ccccc1)NC(=O)[C@@H](NC(=O)CNC(=O)[C@H](CCC(=O)O)NC(=O)C(C)(C)NC(=O)[C@@H](N)Cc1cnc[nH]1)[C@@H](C)O)[C@@H](C)O)C(C)C)C(=O)N[C@@H](C)C(=O)N[C@@H](Cc1c[nH]c2ccccc12)C(=O)N[C@@H](CC(C)C)C(=O)N[C@H](C(=O)N[C@@H](CCCNC(=N)N)C(=O)NCC(=O)N[C@@H](CCCNC(=N)N)C(=O)NCC(=O)O)C(C)C`: “tmax at steady state” 30 h (Caucasian subjects; subcutaneous once weekly, 1.0 mg, median).
`N.N.N.N.N.N.N.N.N.N.N.N.N.N.[Cl-].[Cl-].[Cl-].[Cl-].[Cl-].[Cl-].[O-2].[O-2].[Ru+3].[Ru+3].[Ru+4]`: chemical stability “stable” (UV absorbance; ND96 recording solution).
For `C=CC(=C)CCC1(C)C(C)CC(O)C23C(=CC(OC(=O)C(C)CC)CC12)C(OC(C)=O)OC3OC(C)=O` (stereo not shown), the haemolysis was 2.2% (haemolysis; 20 µM).
`CCN1CCN(Cc2ccc(Nc3ncc(F)c(-c4cc(F)c5nc(C)n(C(C)C)c5c4)n3)nc2)CC1` gave a hepatic clearance of 23 L/h (population PK model; patients, plasma; oral, 150 mg single dose).
For `NCCCC[C@H](N)C(=O)O`, “Π (relative logD)” read -2.44 ± 0.02 (octanol/phosphate buffer; pH 7.0, N-4-nitrobenzoyl amino acid derivatives; relative to: glycine derivative).
With `C1CCc2c(c(N3CCOCC3)nc3sc4c(N5CCNCC5)nnnc4c23)C1` the plasma clearance was 325 mL/min/kg (Swiss albino mice, male; intravenous, 3 mg/kg).
For `CCc1oc2cc(OC)ccc2c1C(=O)c1cc(Br)c(O)c(Br)c1`, the intrinsic clearance was 27.3 ± 5.7 µL/min/mg (Sprague-Dawley rat, intestine microsomes; 1 µM, pH 7.4, added: NADPH).
For `[2H]C([2H])([2H])Oc1cc2c(cc1OC([2H])([2H])[2H])C1CC(=O)C(CC(C)C)CN1CC2` (stereo not shown), the dose-normalized Cmax was 1.5 ng/mL (measured: deuterated α-HTBZ; healthy human volunteers, plasma; oral, 24 mg single dose, standard meal).
With `N#C[C@@H]1CCCN1C(=O)CNC12CC3CC(CC(O)(C3)C1)C2` the AUC was 2970 ng·h/mL (male ICR mouse, plasma; oral, 3 mg/kg, 24 h).
`Clc1ccccc1C(c1ccccc1)(c1ccccc1)n1ccnc1` gave an unbound fraction of 0.005 ± 0.0006 (equilibrium dialysis; 500 nM CYP26B1 in buffer; 1 µM, 12 h, pH 7.4, spectral binding conditions).
For `CCCC[C@H](NC(C)=O)C(=O)N[C@H]1CCC(=O)NC[C@@H](C(=O)N[C@@H](Cc2c[nH]c3ccccc23)C(N)=O)NC(=O)[C@H](CCCNC(=N)N)NC(=O)[C@@H](Cc2ccccc2)NC(=O)[C@H](Cc2c[nH]cn2)NC1=O`, the AUC(0-last) was 239 ng·h/mL (beagle dog, male, plasma; subcutaneous, 1.5 mg/kg daily, day 14).
With `N[C@H]1CCN(c2nccc(-c3cnn4ncccc34)n2)C1` the CLint was 199 µL/min/mg (human liver microsomes).
With `Cc1c(C(=O)NN2CCCCC2)nn(-c2ccc(Cl)cc2Cl)c1-c1ccc(Cl)cc1` the plasma concentration was 355 nM (LC-MS/MS; cynomolgus monkey 2, plasma; intravenous infusion, 0.7 mg/kg, 90 min, total concentration mid-point of PET).
`O=C([O-])CN(CC(=O)[O-])CC(=O)O.[Cu+2]` — result for “reduction potential vs NHE”: 215 mV (square wave voltammetry; metal chelate; concentration not given, pH 7.4, anaerobic).
The equilibrium solubility of `CCC(CC)COC(=O)[C@H](C)N[P@](=O)(OC[C@H]1O[C@@](C#N)(c2ccc3c(N)ncnn23)[C@H](O)[C@@H]1O)Oc1ccccc1` is reported as 8340 µg/mL (20% w/w aqueous SBECD; 24 h, pH 1.9, 25 °C, SBECD source 1).
With `CCCC[C@@H]1NC(=O)[C@@H](NC(=O)[C@H](CCC(=O)O)NC(=O)CNC(=O)CN2CCN(CC(=O)O)CCN(CC(=O)O)CCN(CC(=O)O)CC2)CCCCNC(=O)C[C@@H](C(N)=O)NC(=O)[C@H](C(C)C)NC(=O)[C@@H]2CCCN2C(=O)[C@H](CCCNC(=N)N)NC(=O)CNC(=O)[C@H](Cc2c[nH]c3ccccc23)NC(=O)[C@H](CCCNC(=N)N)NC(=O)[C@@H](Cc2ccccc2)NC(=O)[C@H](Cc2c[nH]cn2)NC(=O)[C@H](CCC(=O)O)NC1=O` [indium-111 labelled] the tissue uptake was 0.05 ± 0.03 %ID/g (C57 mice, B16/F10 lung metastatic melanoma, stomach; intravenous, 0.037 MBq, 24 h).

For quick reference, copied from above:
For `NCCCC[C@H](N)C(=O)O`, “Π (relative logD)” read -2.44 ± 0.02 (octanol/phosphate buffer; pH 7.0, N-4-nitrobenzoyl amino acid derivatives; relative to: glycine derivative).
`CN1CCN(c2ccc3nc(-c4c(N)c5c(F)cccc5[nH]c4=O)[nH]c3c2)CC1` gave a t1/2 of 13.2 h (patients, plasma; oral, 300 mg daily 5 days on 2 off, day 19, median, added: gemcitabine and capecitabine).
`C[C@]12CC[C@@H]3c4ccc(O)cc4CC[C@H]3[C@@H]1C[C@@H](O)[C@@H]2O` — result for “median serum concentration”: 0.0696 ng/mL (GC-MS; breast cancer women on NSAI, serum; vaginal, 0.03 mg, 2 h, day 0).
`Cc1nc2cccc(OCC(C)(C)C(=O)NC(C)C)c2c(N)c1C(=O)O` gave a Tmax of 0.25 h (female Sprague-Dawley rat, plasma; oral gavage, 100 mg/kg, day 7).
